Published values gathered from unrelated publications.
Every numbered part comes from another study and shows a few of its results, in no order.
Sequence of UniProt Q13464 (whole entry, looked up): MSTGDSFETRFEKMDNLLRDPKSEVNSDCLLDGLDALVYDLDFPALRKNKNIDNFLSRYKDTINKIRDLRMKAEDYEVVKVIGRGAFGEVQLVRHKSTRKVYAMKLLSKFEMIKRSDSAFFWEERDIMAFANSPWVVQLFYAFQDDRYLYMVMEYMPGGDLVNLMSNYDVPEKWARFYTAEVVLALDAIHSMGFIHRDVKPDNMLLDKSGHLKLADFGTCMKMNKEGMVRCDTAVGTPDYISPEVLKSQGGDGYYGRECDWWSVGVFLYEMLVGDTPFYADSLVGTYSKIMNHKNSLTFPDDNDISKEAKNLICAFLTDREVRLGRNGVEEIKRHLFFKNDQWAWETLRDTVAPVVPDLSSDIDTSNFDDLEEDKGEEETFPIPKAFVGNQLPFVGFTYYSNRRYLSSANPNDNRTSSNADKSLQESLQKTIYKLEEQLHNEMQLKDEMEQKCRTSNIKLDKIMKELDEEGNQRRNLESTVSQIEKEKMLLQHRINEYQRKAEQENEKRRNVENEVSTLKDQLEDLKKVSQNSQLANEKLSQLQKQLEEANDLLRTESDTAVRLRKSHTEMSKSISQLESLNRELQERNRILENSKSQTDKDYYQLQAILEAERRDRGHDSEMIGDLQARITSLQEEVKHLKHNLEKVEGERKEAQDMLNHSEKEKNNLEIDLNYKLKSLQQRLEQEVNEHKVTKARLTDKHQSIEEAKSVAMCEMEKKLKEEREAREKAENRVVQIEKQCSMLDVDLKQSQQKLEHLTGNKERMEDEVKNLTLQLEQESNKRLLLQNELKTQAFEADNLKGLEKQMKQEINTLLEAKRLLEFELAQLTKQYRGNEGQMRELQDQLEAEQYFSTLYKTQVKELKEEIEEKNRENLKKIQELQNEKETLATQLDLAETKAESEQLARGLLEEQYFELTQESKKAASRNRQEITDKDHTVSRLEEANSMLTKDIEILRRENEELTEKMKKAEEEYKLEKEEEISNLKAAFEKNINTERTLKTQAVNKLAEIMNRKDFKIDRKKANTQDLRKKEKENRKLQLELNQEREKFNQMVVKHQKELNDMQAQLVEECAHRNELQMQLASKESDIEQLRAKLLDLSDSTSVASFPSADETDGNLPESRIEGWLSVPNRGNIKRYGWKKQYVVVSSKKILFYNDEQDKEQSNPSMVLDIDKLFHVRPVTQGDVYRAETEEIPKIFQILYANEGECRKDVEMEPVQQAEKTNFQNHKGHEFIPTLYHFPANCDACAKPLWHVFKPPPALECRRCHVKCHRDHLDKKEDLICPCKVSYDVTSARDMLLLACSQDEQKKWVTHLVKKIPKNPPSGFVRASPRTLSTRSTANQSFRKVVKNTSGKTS
Sequence of UniProt Q15139 (whole entry, looked up): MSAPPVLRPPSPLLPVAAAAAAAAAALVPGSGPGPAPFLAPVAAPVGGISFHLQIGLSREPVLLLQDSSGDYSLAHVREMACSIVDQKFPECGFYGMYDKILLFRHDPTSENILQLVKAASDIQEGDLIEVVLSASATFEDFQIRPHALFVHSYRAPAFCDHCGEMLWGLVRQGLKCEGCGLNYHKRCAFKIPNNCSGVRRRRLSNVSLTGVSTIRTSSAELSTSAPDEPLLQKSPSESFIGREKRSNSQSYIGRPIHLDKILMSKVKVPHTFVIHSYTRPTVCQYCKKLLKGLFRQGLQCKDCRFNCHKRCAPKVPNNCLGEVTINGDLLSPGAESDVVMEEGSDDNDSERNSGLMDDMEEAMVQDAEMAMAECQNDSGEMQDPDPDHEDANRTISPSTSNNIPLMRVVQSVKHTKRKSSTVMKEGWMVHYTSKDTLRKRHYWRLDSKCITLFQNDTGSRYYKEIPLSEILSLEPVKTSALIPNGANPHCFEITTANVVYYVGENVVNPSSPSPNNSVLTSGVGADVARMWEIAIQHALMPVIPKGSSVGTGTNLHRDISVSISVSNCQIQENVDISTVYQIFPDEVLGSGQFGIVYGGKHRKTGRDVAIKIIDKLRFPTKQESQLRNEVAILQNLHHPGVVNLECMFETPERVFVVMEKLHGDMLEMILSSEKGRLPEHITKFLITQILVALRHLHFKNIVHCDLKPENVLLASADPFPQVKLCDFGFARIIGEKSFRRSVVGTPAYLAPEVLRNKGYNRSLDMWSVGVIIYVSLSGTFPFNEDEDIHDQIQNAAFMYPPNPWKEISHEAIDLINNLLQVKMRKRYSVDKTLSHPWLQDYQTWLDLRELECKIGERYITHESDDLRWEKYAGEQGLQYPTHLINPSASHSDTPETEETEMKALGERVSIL

Sample 1
Cell line: A-375
Concentration: 100 µM
Time: 36 h
Compound | viability [%]
CC(/C=C/C=C(\C)C(=O)O[C@@H]1O[C@H](CO[C@@H]2O[C@H](CO)[C@@H](O)[C@H](O)[C@H]2O)[C@@H](O)[C@H](O)[C@H]1O)=C\C=C\C=C(C)\C=C\C=C(/C)C(=O)O[C@@H]1O[C@H](CO[C@@H]2O[C@H](CO)[C@@H](O)[C@H](O)[C@H]2O)[C@@H](O)[C@H](O)[C@H]1O | 96.8
CC(=O)OC(C)C[N+](C)(C)C (stereo not shown) | 106
C=C1CC[C@H](O)C/C1=C/C=C1\CCC[C@]2(C)[C@@H]([C@H](C)/C=C/[C@H](C)C(C)C)CC[C@@H]12 | 3.81
Cc1ccc(-c2cc(C(F)(F)F)nn2-c2ccc(S(N)(=O)=O)cc2)cc1 | -3.05
COc1ccc(C(Cl)=C(c2ccc(OC)cc2)c2ccc(OC)cc2)cc1 | 84.3
C[n+]1cc2c3c(ccc2c2ccc4cc5c(cc4c21)OCO5)OCO3 | -1.92
CN1CCCCC1CCN1c2ccccc2Sc2ccc([S+](C)[O-])cc21 (stereo not shown) | 2.58
O=C(NCCO[N+](=O)[O-])c1cccnc1 | 85.7
CCC(CC)[C@H](NC(C)=O)[C@@H]1[C@H](O)[C@@H](C(=O)O)C[C@H]1NC(=N)N | 98.1
O=C(O)c1cc(=O)c2ccccc2o1 | 114
O=C(O)c1cc(O)c(O)c(O)c1 | 7.7
CC[C@@H]1/C=C(\C)C[C@H](C)C[C@H](OC)[C@H]2O[C@@](O)(C(=O)C(=O)N3CCCC[C@H]3C(=O)O[C@H](/C(C)=C/[C@@H]3CC[C@H](Cl)[C@H](OC)C3)[C@H](C)[C@@H](O)CC1=O)[C@H](C)C[C@@H]2OC | 92.3
Cc1cccc(Nc2ccccc2C(=O)O)c1C | 72.6
COc1cc(OC)c(C(=O)CCCN2CCCC2)c(OC)c1 | 125
CN1CCOC(c2ccccc2)c2ccccc2C1 (stereo not shown) | 105

Sample 2
Target: Ephrin type-A receptor 7 (EPHA7, Homo sapiens, UniProt Q15375)
Sequence of UniProt Q15375 (whole entry, looked up): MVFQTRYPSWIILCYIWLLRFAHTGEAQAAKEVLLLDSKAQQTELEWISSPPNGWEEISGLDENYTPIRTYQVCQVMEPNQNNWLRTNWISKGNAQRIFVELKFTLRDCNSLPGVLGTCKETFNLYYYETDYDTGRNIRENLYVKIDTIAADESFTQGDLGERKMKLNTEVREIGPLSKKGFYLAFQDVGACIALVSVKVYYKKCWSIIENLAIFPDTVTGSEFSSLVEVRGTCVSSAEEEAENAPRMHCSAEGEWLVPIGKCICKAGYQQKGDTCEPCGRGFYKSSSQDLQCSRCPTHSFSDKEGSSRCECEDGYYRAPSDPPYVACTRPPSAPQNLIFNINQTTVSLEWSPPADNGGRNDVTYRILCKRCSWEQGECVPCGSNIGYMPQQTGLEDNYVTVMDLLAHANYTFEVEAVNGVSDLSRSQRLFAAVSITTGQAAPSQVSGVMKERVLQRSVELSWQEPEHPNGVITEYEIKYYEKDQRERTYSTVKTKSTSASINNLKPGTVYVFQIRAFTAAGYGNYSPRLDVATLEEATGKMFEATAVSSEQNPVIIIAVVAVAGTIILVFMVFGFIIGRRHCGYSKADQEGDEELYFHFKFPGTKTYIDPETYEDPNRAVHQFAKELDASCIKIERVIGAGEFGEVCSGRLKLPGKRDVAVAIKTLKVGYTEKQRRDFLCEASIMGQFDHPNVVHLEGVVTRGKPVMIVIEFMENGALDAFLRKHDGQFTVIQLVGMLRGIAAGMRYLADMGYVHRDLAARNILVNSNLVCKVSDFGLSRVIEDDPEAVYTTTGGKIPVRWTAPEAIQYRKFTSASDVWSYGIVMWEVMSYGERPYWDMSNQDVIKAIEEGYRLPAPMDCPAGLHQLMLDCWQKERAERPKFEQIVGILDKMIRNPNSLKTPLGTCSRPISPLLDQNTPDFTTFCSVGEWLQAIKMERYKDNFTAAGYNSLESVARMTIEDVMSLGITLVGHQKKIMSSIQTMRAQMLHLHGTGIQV
Observed: enzyme activity
Mode: inhibitor
Concentration: 0.5 µM
Baseline: control
SMILES | remaining activity [%]
COc1cc(Nc2c(C#N)cnc3cc(OCCCN4CCN(C)CC4)c(OC)cc23)c(Cl)cc1Cl | 77.2
Cc1cc(Nc2nc(-c3ccccc3)nc3ccccc23)n[nH]1 | 72.5
Nc1ncnc2c1cnn2-c1ccccc1 | 99.2
Cc1ccc(NC2=CC(=O)c3sc(C)nc3C2=O)cc1 | 92.3
Cc1cncc2cccc(S(=O)(=O)N3CCCN(C(=O)CN)C[C@@H]3C)c12 | 90.7
COc1ccc(S(=O)(=O)N(CCO)c2ccccc2CN(C)CC=Cc2ccc(Cl)cc2)cc1 | 98.9
O=S(=O)(NCCNC/C=C/c1ccc(Br)cc1)c1cccc2cnccc12 | 109
CC[n+]1c(/C=C/N(C)c2ccccc2)n(-c2ccccc2)c2ccc(-c3nc4ccccc4s3)cc21 | 97.9
N#CC(=C(N)Sc1ccc(N)cc1)c1ccccc1C(F)(F)F | 105
CCc1[nH]c(-c2ccc(OC)cc2)nc1-c1ccncc1 | 91.6
Nc1nc(Nc2ccc(S(N)(=O)=O)cc2)nn1C(=O)c1c(F)cccc1F | 68.7
NC(=O)c1ccc(N(C(N)=O)c2c(F)cccc2F)nc1-c1ccc(F)cc1F | 79.9
CC#CC(=O)Nc1cc2c(Nc3ccc(F)c(Cl)c3)ncnc2cn1 | 91.3
CCCC(=O)Oc1ccc2[nH]c(C(=O)c3cc4ccccc4[nH]3)cc2c1 | 97.2
O=C1Cc2c([nH]c3ccc([N+](=O)[O-])cc23)-c2ccccc2N1 | 95
CC(C)(C)n1nc(Cc2cccc3ccccc23)c2c(N)ncnc21 | 90.4
Nc1nccc(-c2c(-c3ccc(F)cc3)ncn2C2CCNCC2)n1 | 94
Fc1ccc(-c2nc3n(c2-c2ccncc2)CCS3)cc1 | 76.3
Oc1ccc(Nc2nc(-c3ccc(Cl)cc3)cs2)cc1 | 97.7
CSc1nc(-c2ccnc(N[C@@H](C)c3ccccc3)c2)c(-c2ccc(F)cc2)[nH]1 (racemic) | 102
O=C1NC(=O)C(c2c[nH]c3ccccc23)=C1c1c[nH]c2ccccc12 | 94.3
CC(=O)c1ccc(N2CCOCC2)cc1O | 95.5

Sample 3
Target: Calcium/calmodulin-dependent protein kinase type II subunit alpha (CAMK2A, Homo sapiens, UniProt Q9UQM7)
Sequence of UniProt Q9UQM7 (whole entry, looked up): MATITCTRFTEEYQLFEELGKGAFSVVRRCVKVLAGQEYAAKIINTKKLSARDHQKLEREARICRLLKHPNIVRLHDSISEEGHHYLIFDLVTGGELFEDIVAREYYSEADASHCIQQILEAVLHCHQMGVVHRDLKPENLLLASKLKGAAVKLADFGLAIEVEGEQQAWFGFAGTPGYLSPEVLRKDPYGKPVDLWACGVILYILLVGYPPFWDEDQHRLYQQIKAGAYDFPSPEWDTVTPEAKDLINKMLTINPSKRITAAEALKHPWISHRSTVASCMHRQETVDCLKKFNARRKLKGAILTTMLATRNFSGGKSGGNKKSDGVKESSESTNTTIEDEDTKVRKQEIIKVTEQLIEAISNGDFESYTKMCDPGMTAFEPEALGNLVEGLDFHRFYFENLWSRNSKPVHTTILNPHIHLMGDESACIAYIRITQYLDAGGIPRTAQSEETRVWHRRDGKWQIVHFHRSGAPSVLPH
Observed: enzyme activity
Mode: inhibitor
Concentration: 10 µM
Compound | inhibition [%]
COc1nc(C)nc(Cl)c1NC1=NCCN1 | -5
CC(C)[C@@H](C)/C=C/[C@@H](C)[C@H]1CC[C@H]2[C@@H]3CC=C4C[C@@H](O)CC[C@]4(C)[C@H]3CC[C@]12C | -45
CC1=C(C/C=C(\C)CCCC(C)CCCC(C)CCCC(C)C)C(=O)c2ccccc2C1=O (stereo not shown) | 2
Cc1ncc(CO)c(C=O)c1O | -5
O=C(/C=C/c1ccc(O)c2c1[C@H](C(=O)O[C@H](Cc1ccc(O)c(O)c1)C(=O)O)[C@@H](c1ccc(O)c(O)c1)O2)O[C@H](Cc1ccc(O)c(O)c1)C(=O)O | -3
CCC1=C(C)CN(C(=O)NCCc2ccc(S(=O)(=O)NC(=O)N[C@H]3CC[C@H](C)CC3)cc2)C1=O | 0
CCOC(=O)/C=C/c1ccc(O)cc1 | 20
COC(=O)C1=C(C#N)NC(C)=C(C(=O)OC(C)C)C1c1cccc([N+](=O)[O-])c1 (stereo not shown) | -5
COCC(=O)Nc1c(I)c(C(=O)NCC(O)CO)c(I)c(C(=O)N(C)CC(O)CO)c1I (mixture of isomers) | -4
Cc1cc(=O)c2c(O)cc(O)cc2o1 | 2
CC(=O)c1c(O)c(C)c(O)c2c1OC1=CC(=O)C(C(C)=O)C(=O)C12C (stereo not shown) | -13
CC(C)[C@@H]1CC[C@@H](C)CC1=O | -31
c1cnc(N2CCN(Cc3ccc4c(c3)OCO4)CC2)nc1 | -1
NC(=O)N1c2ccccc2C=Cc2ccccc21 | -5
CCCCCC(C)C(=O)O (stereo not shown) | -21
Cc1cn([C@H]2O[C@@H](CO)[C@H](O)[C@H]2F)c(=O)[nH]c1=O | -1
C[C@@H]1O[C@@H](OCCC(=O)O)[C@H](O)C[C@H]1O | 34

Sample 4
Structure (SMILES): O=C(N1CCS(=O)(=O)CC1)N1C[C@H](c2ccc(OC(F)(F)F)cc2)C[C@H](c2nc(C3CC3)no2)C1
Method: competition with immobilised ligand
Concentration: 1 µM
target | observed | remaining binding [%]
TGFBR2 (Homo sapiens, UniProt P37173) | cell-free assay | 100
ROCK1 (Homo sapiens, UniProt Q13464) | cell-free assay | 94
LIM domain kinase 2 (LIMK2, Homo sapiens, UniProt P53671) | cell-free assay | 95
MAST1 (Homo sapiens, UniProt Q9Y2H9) | cell-free assay | 100
TEC (Homo sapiens, UniProt P42680) | binding | 100
PRKAA2 (Homo sapiens, UniProt P54646) | cell-free assay | 100
TRPM6 (Homo sapiens, UniProt Q9BX84) | cell-free assay | 100
PRKD1 (Homo sapiens, UniProt Q15139) | cell-free assay | 100
EPHA6 (Homo sapiens, UniProt Q9UF33) | cell-free assay | 100
Receptor-type tyrosine-protein kinase FLT3, autoinhibited (FLT3, Homo sapiens, UniProt P36888) | cell-free assay | 81

A few entries again (sample 1):
Compound | viability [%]
O=C(NCCO[N+](=O)[O-])c1cccnc1 | 85.7
O=C(O)c1cc(=O)c2ccccc2o1 | 114
Cc1ccc(-c2cc(C(F)(F)F)nn2-c2ccc(S(N)(=O)=O)cc2)cc1 | -3.05
Cc1cccc(Nc2ccccc2C(=O)O)c1C | 72.6
CC(=O)OC(C)C[N+](C)(C)C (stereo not shown) | 106
C[n+]1cc2c3c(ccc2c2ccc4cc5c(cc4c21)OCO5)OCO3 | -1.92
COc1ccc(C(Cl)=C(c2ccc(OC)cc2)c2ccc(OC)cc2)cc1 | 84.3
